Results gathered from unrelated publications.
Numbered parts are unrelated; each lists some results of a single study. Positions count from the first letter of the parent shown.

Study 1 — method: aptamer microarray, sandwich; form: DNA with 2'F-ANA; sample: in vitro; tested at: 200 nM; together with: Cy3 exosite-II aptamer, 400 nM; reading: higher = stronger binding; measurement: mean fluorescence intensity; strand: GGTTGGTGTGGTTGG
Target: Prothrombin, mature alpha-thrombin (F2, Homo sapiens, UniProt P00734)
Notes: whole 15-mer aptamer, many near background
2'F-ANA at 1 5 12 14: 44.9 a.u.
2'F-ANA at 1 3 5 8 14 15: 45.5 a.u.
2'F-ANA at 1 3 11 12 13 15: 430 a.u.
2'F-ANA at 3 5 7 8 12 14: 80.2 a.u.
2'F-ANA at 1 3 4 6 7 9 11 12 14 15: 66.5 a.u.
2'F-ANA at 2 3 4 6 7 8 9 12: 812 a.u.
2'F-ANA at 1 5 6 7 10 11 12 14 15: 50.2 a.u.
2'F-ANA at 2 4 5 7 9 13 14 15: 44.1 a.u.
2'F-ANA at 1 6 7 10 12 15: 68.4 a.u.
2'F-ANA at 2 6 7 11 12 14 15: 144 a.u.
2'F-ANA at 4 6 10 11 13 14: 55 a.u.
2'F-ANA at 1 2 3 6 7 10 13 15: 63.2 a.u.
2'F-ANA at 1 3 4 6 8 9 12 14: 72.8 a.u.
2'F-ANA at 2 4 7 10 11 13: 113 a.u.
2'F-ANA at 1 2 3 4 5 7 9 12 14 15: 73.5 a.u.
2'F-ANA at 2 3 5 6 8 9 12: 239 a.u.
2'F-ANA at 2 5 6 8 10 11 12: 52.6 a.u.
2'F-ANA at 1 2 4 6 8 9 12 13: 164 a.u.
2'F-ANA at 2 3 6 9 12 14 15: 362 a.u.
2'F-ANA at 3 7 9 12 13 14 15: 615 a.u.
2'F-ANA at 1 2 5 7 10 13 14 15: 68.5 a.u.
2'F-ANA at 2 3 4 5 6 9 10 15: 52.4 a.u.
2'F-ANA at 1 3 5 6 12 13 14 15: 45.2 a.u.
2'F-ANA at 1 2 4 5 7 8 11 12 14: 79.6 a.u.
2'F-ANA at 2 3 5 6 7 8 9 13 14 15: 59.8 a.u.

Study 2 — target: CREB3L4, bZIP domain (human); method: DHFR protein complementation; sample: yeast; baseline: wild-type JUN-FOS pair; reading: higher = stronger binding; measurement: binding fitness
Notes: single substitutions, most at no-binding floor
Parent: JUN, bZIP domain (human); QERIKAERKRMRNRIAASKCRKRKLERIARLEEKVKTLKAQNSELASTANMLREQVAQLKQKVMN; partner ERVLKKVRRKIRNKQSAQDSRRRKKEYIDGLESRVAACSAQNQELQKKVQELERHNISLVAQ
E44F: -1.56 natural log
L31V: -1.51 natural log
T37G: -1.46 natural log
N42F: -1.41 natural log
K34L: -1.55 natural log
S43L: -1.49 natural log
S43A: -1.39 natural log
K36L: -1.49 natural log
Q55M: -1.42 natural log
R30S: -1.29 natural log
Q55W: -1.51 natural log
L45R: -1.53 natural log
V56A: -1.59 natural log
V56Y: -1.42 natural log
M51G: -1.37 natural log
Q41R: -1.49 natural log
K36V: -1.46 natural log
T37H: -1.2 natural log

Study 3 — method: DHFR PCA, deep sequencing; sample: yeast; together with: (+)-ABA 58 µM; baseline: wild-type fitted maximum; reading: higher = stronger binding; measurement: relative binding score
Target: ABI1, truncated, D143A, DHFR fusion (Arabidopsis thaliana)
Notes: methotrexate growth selection, single substitutions
Parent: PYL1, truncated, DHFR fusion (Arabidopsis thaliana); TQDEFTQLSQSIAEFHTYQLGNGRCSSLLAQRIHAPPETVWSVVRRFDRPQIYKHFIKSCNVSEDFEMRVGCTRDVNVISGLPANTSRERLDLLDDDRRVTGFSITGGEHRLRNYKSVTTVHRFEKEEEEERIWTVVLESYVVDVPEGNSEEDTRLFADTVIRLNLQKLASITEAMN
L29A: 44.1%
Y53G: 6.86%
E147P: 83.3%
E64R: 84.4%
F47E: -17.2%
Q31K: 88.4%
E131P: 96.1%
L112K: 13.5%
V100D: -1.14%
R69S: 82.2%
S9L: 71.7%
N85Y: 78.4%
D153T: 20%
W134N: 93.5%
C72K: 56.6%
V142L: 65.2%

Study 4 — method: universal PBM; form: double-stranded DNA, one strand shown; sample: in vitro; tested at: not given; reading: higher = stronger binding; measurement: E-score
Target: Sal-like protein 4, full length isoform B (SALL4, Homo sapiens, UniProt Q9UJQ4-2, residues 1-616)
Notes: 8-mer, flanks averaged, mean of replicates
ATGAGCTA: 0.121
CATGTAGC: 0.0114
TCCGTACA: 0.0425
AAGGAGTA: -0.0455
AGGGGAAA: 0.0149
AAGTGGCG: 0.0602
GTAGCATA: 0.183
CCTAGGTA: -0.0192
CTCTTCGC: -0.146
GGAACGCC: -0.247
ACGACGGC: -0.246
GCACTCCA: -0.136
GGAGCGGA: -0.263
TTGACCAA: 0.00613
GTGAGGTA: -0.0706
CGTAAGCA: -0.161
GATTAGCA: 0.0551
GAGTTGAC: -0.138

Study 5 — method: RNA Bind-n-Seq; form: RNA; sample: in vitro; tested at: 365 nM; baseline: no-protein control; reading: higher = stronger binding; measurement: RBNS enrichment (R)
Target: RNA binding protein fox-1 homolog 2, RRM domain, GST-SBP tag (RBFOX2, Homo sapiens, UniProt O43251-10, residues 100-194)
Notes: natural RNA segment, single round, ends assumed
All sequences stand within: GGGAGUUCUACAGUCCGACGAUC … UGGAAUUCUCGGGUGCCAA
Construct (chain): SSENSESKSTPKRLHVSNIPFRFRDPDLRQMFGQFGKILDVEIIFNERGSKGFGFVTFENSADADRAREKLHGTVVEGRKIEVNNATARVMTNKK
UAUGUCUGAAGGUUUUAAAUAGUGGUUGACCCAACACCUUGGACUGAAAUUUUGAAAAGUUUUGAAAAAAGACUGCUAGACUUAGAGAGAGAAGCCAGAACAAAUUCCGC: 0.676
GAAGAGUGGUUACCUAUACCUAGCAUAGUACAAUCAGAACCUCGUGGAGACCACCGGGGACAGGCUUGCGGACGCCGGCUGUUCUUCCCGCCACGAUCUUUCUGUGGUAG: 0.252
UGUGAAGAGCAGGUCUGCUUUACCUUUCUUGCCAGGUUCAAACUGUGUUUUUAAAUGGAAGGGAUUUGUGGCAUCCACUUGCUGAGCGGUGAACAGAGCGAGACGCAGUU: 0.395
AAGCCUAAUUGUAGUUCGUAACAAUUUGUCAGUACGUACUAAUUGCCUUAUUCUUCAGCUAGUGGUUUAUAAAGAGGCUGCAUAGAAAGUUUUACACAUGGAAGCAGCUG: 0.552
AAAUGUGUGCUUUAUAGUGUUUACUAAAGUGACAAGAAAAUAUACCAUUUGACACACUAUAGAUUCCAAACAUAACGUUGCACCAAAUAGAAAUGUAUAUUUUAUUAUGC: 0.356
CAAGUUAAUGCAUGUUACUCAGUCGCCCAGUAUGUGAAAGAAGAUAUGAGGGAGACAAAUGAGUUGAUAGUUUGAAUUAUAGGAUUUUUGCCACGUUACCUUGAUGCAAA: 46.9
AGGAAGAUCUGGCUCAGUCUACUAUGGGCAGGGCCCCCCACCAAGCUGAGCCGAAUGGAGACAGCUGAGCUGAGGCCUGACUUUUUCAAUAAAACAUUGUGUAGUUCUGG: 0.574
CCGUGCUGCUGUGUUCUGCUCCUCCCCACGCUUCCCUGCUAUAGUUCCCAGCUGCUGUAACGGAGCCACCUCCAACUCUAACAAUAAACCAAGUUCAUUGCAGAUAGUGU: 0.373
CCAAAGACACAUUUCUCAGAACGUAGCCCCAUCAUGAAGUGACGUGACUACCAGAGAUUUCUGGAAAAGCACUCCCAAAAGUAAUGAGAUGUGUAUGGCAAUGUUAACUG: 0.405
AAGGAGAAAGAGCAAGAUGAGGAGGAGAUGGUGGAUGAAAAGGCAAACUUGAAGAAAAAAGCCAAGGGCAAGUUAACUAAGAAGAAAACCCCAGUGAAGUCGGAGUCUUC: 1.21
CUGGGGCAUGGGCUGAGCAAGUAUUUGUGUGGUCAAGGAAGUGCUAUGCCAACAUCUCCCAUUGGAAACAGGGUUUCUCCUCCUUGCUUCAUCAGAGCCAACCUUUGAUA: 0.486
UUCACUAACUUAUACUUGUCUAUCUAGAAUACAGGUCUUCCAGUCAGCUGGUCAUUUACCAGGUGUGGACUUAAGUUGCUAGGCUUGCAGUAAGAAUUGCCAGCCACUCA: 0.343

Study 6 — target: CCNF, cyclin fold, Cln2 fusion (human); method: yeast growth competition, sequencing; sample: yeast; notes: weak parent motif; baseline: not given; reading: higher = stronger binding; measurement: normalised enrichment score
Parent: MASTL docking peptide (human); PMIAKNLMCELDE; partner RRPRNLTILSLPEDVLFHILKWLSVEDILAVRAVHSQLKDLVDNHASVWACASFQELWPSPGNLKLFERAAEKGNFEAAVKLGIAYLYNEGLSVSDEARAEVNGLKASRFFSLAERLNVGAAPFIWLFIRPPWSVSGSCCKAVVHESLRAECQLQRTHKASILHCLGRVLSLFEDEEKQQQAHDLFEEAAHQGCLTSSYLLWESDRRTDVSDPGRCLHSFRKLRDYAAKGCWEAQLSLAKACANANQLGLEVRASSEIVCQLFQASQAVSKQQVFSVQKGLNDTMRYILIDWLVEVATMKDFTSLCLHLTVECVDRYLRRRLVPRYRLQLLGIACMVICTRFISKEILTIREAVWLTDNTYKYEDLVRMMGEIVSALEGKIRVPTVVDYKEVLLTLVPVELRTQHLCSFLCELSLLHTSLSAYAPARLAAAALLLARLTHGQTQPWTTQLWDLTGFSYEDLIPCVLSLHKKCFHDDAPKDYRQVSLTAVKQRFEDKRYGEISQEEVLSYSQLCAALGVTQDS
C9G: -0.267
D12W: 0.185
N6T: -0.251
L7M: -0.442
M8P: -0.304
M2W: -0.125
D12S: 0.197
L11M: -0.382
K5N: -0.146
D12C: 0.249
M8Y: -0.328
L11S: -0.219
L11D: -0.627
A4I: 0.242
K5I: -0.101
M2I: 0.0809
I3Q: -0.404
N6D: -0.315
L7N: -0.172
K5D: -0.00719
C9T: -0.108
L11V: -0.0885
L11W: 0.261

Single results of other studies
PhoQ, residues 284 288 289 292 302 303 STVVAA
fold induction (PhoP, residues 12 14 15 18 19 NQFFI (Escherichia coli, UniProt P23836); Sort-seq, refers to: YFP reporter; E. coli; PhoQ-PhoP variant library, together with: 10 µM Mg2+; baseline: high Mg2+ state, higher = stronger signaling): 14.1

Repeated from above (study 4):
CATGTAGC: 0.0114
TCCGTACA: 0.0425
AAGGAGTA: -0.0455
AGGGGAAA: 0.0149
AAGTGGCG: 0.0602
GTAGCATA: 0.183
CCTAGGTA: -0.0192
CTCTTCGC: -0.146
GGAACGCC: -0.247
ACGACGGC: -0.246
GCACTCCA: -0.136
GGAGCGGA: -0.263
TTGACCAA: 0.00613
GTGAGGTA: -0.0706
CGTAAGCA: -0.161
